Measurements of several laboratories.
Parts stem from different laboratories: compare values within a part only. Substitutions count along the parent as printed.
UniProt P52333, sequence (whole entry, looked up): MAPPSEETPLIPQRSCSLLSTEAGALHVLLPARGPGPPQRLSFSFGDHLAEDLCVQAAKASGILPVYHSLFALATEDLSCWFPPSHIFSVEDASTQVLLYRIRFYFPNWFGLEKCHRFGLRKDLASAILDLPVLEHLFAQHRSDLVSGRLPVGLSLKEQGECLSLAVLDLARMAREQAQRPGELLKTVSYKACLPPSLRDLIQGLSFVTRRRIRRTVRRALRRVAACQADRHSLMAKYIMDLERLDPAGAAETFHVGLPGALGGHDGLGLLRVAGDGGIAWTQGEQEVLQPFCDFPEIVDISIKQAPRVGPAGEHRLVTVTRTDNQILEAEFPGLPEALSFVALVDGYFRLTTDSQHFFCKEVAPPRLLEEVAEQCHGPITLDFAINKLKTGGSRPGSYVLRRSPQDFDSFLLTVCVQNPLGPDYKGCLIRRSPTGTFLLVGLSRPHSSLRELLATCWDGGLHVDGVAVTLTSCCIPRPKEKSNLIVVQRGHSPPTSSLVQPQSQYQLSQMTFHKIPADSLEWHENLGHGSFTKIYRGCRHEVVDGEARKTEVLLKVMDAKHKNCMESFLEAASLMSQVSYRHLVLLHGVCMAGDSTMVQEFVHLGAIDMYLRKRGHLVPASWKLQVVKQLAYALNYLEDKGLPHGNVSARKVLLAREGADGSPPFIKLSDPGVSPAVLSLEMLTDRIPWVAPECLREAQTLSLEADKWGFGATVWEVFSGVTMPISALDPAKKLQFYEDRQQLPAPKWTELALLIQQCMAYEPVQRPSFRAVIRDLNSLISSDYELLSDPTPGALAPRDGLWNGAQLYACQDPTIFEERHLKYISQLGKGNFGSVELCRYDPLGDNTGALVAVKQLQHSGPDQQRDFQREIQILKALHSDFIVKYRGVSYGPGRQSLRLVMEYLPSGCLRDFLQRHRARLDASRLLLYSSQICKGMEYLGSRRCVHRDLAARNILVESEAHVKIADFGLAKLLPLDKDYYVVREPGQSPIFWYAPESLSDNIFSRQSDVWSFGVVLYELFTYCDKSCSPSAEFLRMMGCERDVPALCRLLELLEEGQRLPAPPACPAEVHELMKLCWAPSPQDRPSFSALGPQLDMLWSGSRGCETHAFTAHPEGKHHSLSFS
UniProt P27361, sequence (whole entry, looked up): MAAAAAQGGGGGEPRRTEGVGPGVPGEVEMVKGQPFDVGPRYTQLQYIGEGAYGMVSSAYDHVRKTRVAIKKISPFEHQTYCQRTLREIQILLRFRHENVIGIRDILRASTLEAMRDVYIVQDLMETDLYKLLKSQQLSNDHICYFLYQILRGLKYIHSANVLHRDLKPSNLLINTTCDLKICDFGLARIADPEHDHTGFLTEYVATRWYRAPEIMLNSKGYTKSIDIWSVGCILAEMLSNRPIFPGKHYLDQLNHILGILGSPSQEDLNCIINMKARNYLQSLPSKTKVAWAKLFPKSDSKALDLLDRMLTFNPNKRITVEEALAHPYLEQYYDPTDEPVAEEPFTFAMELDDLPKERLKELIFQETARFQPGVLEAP
UniProt P22607, sequence (whole entry, looked up): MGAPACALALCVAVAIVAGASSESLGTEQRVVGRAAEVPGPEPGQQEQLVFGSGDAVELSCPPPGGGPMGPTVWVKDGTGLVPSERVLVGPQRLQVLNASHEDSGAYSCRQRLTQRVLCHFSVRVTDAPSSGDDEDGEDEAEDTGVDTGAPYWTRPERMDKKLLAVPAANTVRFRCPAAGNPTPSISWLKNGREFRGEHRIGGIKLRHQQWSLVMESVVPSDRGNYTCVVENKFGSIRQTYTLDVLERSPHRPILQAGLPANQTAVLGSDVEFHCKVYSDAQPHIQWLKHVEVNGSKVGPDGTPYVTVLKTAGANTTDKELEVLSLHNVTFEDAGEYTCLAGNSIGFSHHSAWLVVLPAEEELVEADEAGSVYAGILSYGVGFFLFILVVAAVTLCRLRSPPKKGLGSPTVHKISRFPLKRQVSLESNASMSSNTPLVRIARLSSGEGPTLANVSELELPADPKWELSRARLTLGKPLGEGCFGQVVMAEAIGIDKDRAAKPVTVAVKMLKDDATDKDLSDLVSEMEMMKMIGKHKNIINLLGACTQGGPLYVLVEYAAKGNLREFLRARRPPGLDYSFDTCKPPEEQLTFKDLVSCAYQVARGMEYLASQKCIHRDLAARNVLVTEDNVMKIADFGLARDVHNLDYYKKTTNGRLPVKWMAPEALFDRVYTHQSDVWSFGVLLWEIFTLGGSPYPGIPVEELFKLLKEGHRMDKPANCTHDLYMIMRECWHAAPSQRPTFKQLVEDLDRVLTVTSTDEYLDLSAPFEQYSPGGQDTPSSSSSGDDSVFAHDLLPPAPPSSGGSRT
UniProt P11362, sequence (whole entry, looked up): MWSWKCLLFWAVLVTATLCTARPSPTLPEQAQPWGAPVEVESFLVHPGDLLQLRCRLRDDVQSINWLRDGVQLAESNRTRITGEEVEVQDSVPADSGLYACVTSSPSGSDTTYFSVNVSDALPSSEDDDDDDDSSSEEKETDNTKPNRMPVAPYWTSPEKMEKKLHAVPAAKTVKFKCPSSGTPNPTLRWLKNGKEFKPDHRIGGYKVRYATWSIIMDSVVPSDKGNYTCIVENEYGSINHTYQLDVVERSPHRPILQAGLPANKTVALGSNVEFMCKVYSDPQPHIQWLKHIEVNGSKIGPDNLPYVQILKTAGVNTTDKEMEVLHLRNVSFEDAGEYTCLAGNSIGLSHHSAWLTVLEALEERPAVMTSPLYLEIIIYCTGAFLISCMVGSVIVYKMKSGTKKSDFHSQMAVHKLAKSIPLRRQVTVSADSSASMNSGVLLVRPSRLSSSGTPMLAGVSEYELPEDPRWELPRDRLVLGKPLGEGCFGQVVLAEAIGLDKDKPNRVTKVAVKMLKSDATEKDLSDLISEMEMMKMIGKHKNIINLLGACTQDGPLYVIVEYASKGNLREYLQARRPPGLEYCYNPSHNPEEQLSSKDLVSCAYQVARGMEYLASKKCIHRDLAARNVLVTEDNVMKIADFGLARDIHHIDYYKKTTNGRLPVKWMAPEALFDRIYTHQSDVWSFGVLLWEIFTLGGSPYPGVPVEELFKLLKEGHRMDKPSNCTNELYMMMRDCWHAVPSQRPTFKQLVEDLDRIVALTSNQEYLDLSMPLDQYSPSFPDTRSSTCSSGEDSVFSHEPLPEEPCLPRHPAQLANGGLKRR
UniProt P78368, sequence (whole entry, looked up): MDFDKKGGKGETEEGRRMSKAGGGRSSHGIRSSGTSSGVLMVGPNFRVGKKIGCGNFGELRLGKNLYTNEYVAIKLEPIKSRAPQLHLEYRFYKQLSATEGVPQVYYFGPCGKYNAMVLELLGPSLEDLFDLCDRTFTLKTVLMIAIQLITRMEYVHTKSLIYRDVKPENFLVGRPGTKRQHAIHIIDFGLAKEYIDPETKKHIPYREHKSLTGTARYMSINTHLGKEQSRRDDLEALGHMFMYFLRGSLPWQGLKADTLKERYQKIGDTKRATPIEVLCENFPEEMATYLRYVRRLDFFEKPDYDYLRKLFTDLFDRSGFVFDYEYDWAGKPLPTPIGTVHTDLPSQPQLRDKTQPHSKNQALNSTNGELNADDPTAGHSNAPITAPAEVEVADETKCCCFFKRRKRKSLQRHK
UniProt P49137, sequence (whole entry, looked up): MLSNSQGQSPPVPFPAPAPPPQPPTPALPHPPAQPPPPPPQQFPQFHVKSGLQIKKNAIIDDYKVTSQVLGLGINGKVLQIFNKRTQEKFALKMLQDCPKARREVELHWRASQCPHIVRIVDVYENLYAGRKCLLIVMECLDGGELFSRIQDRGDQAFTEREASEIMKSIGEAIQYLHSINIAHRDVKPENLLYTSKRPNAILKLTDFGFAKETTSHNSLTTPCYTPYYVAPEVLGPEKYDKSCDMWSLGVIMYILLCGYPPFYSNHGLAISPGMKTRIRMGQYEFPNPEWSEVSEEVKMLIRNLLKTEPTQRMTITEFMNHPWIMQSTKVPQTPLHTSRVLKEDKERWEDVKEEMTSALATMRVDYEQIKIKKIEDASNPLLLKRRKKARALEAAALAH
UniProt P49841, sequence (whole entry, looked up): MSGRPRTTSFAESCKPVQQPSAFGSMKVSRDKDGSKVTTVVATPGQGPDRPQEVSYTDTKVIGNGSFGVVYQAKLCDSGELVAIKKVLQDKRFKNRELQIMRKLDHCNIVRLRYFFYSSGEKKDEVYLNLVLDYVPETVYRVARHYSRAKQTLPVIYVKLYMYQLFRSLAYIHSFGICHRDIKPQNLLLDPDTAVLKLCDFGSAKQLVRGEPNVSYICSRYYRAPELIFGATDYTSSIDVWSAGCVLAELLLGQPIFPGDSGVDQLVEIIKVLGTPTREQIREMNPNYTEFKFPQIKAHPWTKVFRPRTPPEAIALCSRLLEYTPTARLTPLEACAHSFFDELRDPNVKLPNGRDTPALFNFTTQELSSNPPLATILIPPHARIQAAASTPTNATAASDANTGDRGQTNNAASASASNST
UniProt P42685, sequence (whole entry, looked up): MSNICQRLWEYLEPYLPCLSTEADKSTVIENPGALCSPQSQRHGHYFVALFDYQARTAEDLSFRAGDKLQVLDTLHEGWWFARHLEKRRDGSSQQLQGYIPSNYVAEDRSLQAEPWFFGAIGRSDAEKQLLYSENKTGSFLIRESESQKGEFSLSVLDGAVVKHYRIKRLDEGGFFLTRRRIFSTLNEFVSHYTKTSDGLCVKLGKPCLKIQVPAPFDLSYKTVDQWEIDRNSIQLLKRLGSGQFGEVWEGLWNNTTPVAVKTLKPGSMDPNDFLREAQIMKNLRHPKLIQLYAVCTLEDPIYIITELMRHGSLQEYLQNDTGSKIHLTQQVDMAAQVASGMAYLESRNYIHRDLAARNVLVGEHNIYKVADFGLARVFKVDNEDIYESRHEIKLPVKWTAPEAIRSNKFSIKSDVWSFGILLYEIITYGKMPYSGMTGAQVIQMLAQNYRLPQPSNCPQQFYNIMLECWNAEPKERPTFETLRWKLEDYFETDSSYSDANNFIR

Set 1
Target: CCNA1, cyclin fold, Cln2 fusion (human)
Method: yeast growth competition, sequencing
Matrix: yeast
Setting: weak parent motif
Baseline: not given
Reading: higher = stronger binding
Starting sequence: viral docking peptide; KKVKRRLFETREL; partner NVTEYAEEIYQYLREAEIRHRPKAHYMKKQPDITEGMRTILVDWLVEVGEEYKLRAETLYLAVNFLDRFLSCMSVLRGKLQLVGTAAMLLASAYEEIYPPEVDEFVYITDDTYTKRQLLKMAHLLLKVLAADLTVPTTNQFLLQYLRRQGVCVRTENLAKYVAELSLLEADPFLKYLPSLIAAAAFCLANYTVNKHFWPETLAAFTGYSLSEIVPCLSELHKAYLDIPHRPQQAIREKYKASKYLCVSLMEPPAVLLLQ
Change	normalised enrichment score
V3A	0.256
E9A	0.426
F8L	0.188
R11A	0.782
L7A	0.708
K2A	0.648
L13A	0.48
K4A	0.27

Set 2
Structure (SMILES): COc1ccc2c(c[n+](C)c3c4cc5c(cc4ccc23)OCO5)c1OC
Read-out: enzyme activity
Action: inhibitor
Concentration: 0.5 µM
Baseline: control
target	remaining activity [%]
CSNK1G2 (Homo sapiens, UniProt P78368)	96.8
FGFR3 (Homo sapiens, UniProt P22607)	99.1
JAK3 (Homo sapiens, UniProt P52333)	101
MST1R (Homo sapiens, UniProt Q04912)	97.8
FRK (Homo sapiens, UniProt P42685)	89.3
MAPKAPK2 (Homo sapiens, UniProt P49137)	103
ACVR1B (Homo sapiens, UniProt P36896)	110
GSK3B (Homo sapiens, UniProt P49841)	88.3
MAPK3 (Homo sapiens, UniProt P27361)	108
FGFR1 (Homo sapiens, UniProt P11362)	96
ABL2 (Homo sapiens, UniProt P42684)	96.7
MAP2K2 (Homo sapiens, UniProt P36507)	95.6
MAP3K5 (Homo sapiens, UniProt Q99683)	114
WEE1 (Homo sapiens, UniProt P30291)	108

Mixed results
Molecule	tested on	test	system	conditions	scale	quantity	result
CN1C(=O)COc2c(C(=O)NC3CN4CCC3CC4)cc(Cl)cc21 (stereo not shown)	Sarcocystis neurona	parasite growth		10 µM, 96 h, secondary screen		inhibition	-13.4%
COCC1(CO)C(=O)C2CCN1CC2 (stereo not shown)	mouse MPNST tumor cells	high-content immunofluorescence imaging, item: nuclear SOX9		10 µM, 12 h, mean of 2 replicates	baseline: DMSO control, higher = more nuclear SOX9	nuclear SOX9 intensity	85.4 % of DMSO
NC(=O)[C@H](Cc1ccccc1)NC(=O)[C@H](Cc1c[nH]c2ccccc12)NC(=O)[C@@H]1CCCN1C(=O)[C@@H](N)Cc1ccc(O)cc1	CAMK2A (Homo sapiens, UniProt Q9UQM7)	enzyme activity, inhibitor		10 µM		inhibition	20%
FEFTSFFY	HLA class I histocompatibility antigen, B alpha chain, allele B*18:01 (Homo sapiens, UniProt P01889)	peptide-MHC binding	peptide	concentration not given		binding	active
NC1=NC(=O)C(c2ccccc2)O1 (stereo not shown)	Sarcocystis neurona	parasite growth		10 µM, 96 h, secondary screen		inhibition	-25.4%
CNC(=O)Nc1ccc2c(c1)[C@@]1(CC2)OC(=O)N(CC(=O)N(Cc2ccc(F)cc2)[C@@H](C)C(F)(F)F)C1=O	CRK2 (Plasmodium falciparum, UniProt P61075)	cell-free assay, competition with immobilised ligand		1 µM		remaining binding	95%

Some of these lines once more (mixed results):
Molecule	tested on	test	system	conditions	scale	quantity	result
CNC(=O)Nc1ccc2c(c1)[C@@]1(CC2)OC(=O)N(CC(=O)N(Cc2ccc(F)cc2)[C@@H](C)C(F)(F)F)C1=O	CRK2 (Plasmodium falciparum, UniProt P61075)	cell-free assay, competition with immobilised ligand		1 µM		remaining binding	95%
FEFTSFFY	HLA class I histocompatibility antigen, B alpha chain, allele B*18:01 (Homo sapiens, UniProt P01889)	peptide-MHC binding	peptide	concentration not given		binding	active
